Experimental data from different studies.
A part holds a random share of what one study measured.

Sample 1 — method: RNAcompete; form: RNA; matrix: in vitro; tested at: 20 nM; setting: 7-mer, probes averaged, single round; reference: mean of 7-mers; direction: higher = stronger binding
Target: PABPC1L2, full length, GST fusion (mouse, UniProt A0ABA7IW68)
Construct (chain): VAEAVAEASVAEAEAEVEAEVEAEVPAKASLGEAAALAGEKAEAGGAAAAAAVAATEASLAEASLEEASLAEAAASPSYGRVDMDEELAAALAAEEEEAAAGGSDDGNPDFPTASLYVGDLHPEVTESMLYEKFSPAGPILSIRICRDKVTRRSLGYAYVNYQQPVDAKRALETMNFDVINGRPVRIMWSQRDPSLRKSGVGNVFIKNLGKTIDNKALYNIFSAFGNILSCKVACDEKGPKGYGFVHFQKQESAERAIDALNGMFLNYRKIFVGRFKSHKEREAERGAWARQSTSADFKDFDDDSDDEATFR
Oligonucleotide | 7-mer Z-score
UACACAA | 0.14
AAUCAGU | 0.0515
AGAGCGA | -0.0645
CCUCAUC | -0.325

Sample 2 — method: protein-binding microarray; form: double-stranded DNA, one strand shown; matrix: in vitro; tested at: 2540 nM top; setting: 60-bp whole probe; together with: salmon DNA 0.4 mg/ml; reference: random background probes; direction: higher = stronger binding; constant ends, left off below: GCCTAGCAC … GTCTTGATTCGCTTGACGCTGCTG
Target: Interferon regulatory factor 3, full length, phosphomimetic (IRF3, Homo sapiens, UniProt Q14653, residues 1-427, S386D/S396D/S398D/S402D/T404D/S405D)
Sequence of UniProt Q14653 (whole entry, unmodified, looked up): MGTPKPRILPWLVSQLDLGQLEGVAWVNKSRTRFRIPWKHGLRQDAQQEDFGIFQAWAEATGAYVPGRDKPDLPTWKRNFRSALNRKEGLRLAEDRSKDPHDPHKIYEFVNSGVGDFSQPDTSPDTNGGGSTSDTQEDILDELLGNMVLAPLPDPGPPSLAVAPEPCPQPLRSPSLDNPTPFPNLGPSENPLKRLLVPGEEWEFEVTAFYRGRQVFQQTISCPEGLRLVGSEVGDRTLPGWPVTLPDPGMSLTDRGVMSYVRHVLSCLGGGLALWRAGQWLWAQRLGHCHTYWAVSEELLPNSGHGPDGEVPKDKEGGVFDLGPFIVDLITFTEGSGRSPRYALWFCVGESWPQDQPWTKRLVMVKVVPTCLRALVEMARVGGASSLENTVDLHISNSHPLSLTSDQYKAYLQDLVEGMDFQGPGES
Oligonucleotide | fitted relative affinity [z-score]
TCAAACTTAGTTTTCAAACTGTGCTAG | 2.16
CCCAATTCTCTTTTCACTTTGTGCTAG | 2.3
GATGGTTTCGACTTTCGGGACGTGCTA | 3.66
GACGGTTCCGGTTTCGGGACGTGCTAG | 6.1
CACGGTTTCCTTCTCCTGACGTGCTAG | 9.12

Sample 3 — method: protein binding microarray; form: double-stranded DNA, one strand shown; matrix: in vitro; tested at: not given; reference: not given; direction: higher = stronger binding
Target: Histone acetyltransferase KAT6A, both winged helices, GST fusion (KAT6A, Homo sapiens, UniProt Q92794, residues 1-181)
Setting: 8-mer, flanks averaged, mean of 2 arrays, mostly near background
Target sequence (chain): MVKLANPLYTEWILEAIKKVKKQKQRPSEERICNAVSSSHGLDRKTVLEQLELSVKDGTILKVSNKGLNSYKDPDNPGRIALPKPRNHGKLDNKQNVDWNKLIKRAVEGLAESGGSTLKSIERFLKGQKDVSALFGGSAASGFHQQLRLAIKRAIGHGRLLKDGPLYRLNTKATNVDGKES
Oligonucleotide | E-score
GATTAATC | -0.0435
AGTCAGGA | -0.0714
AGAGCAAG | -0.133
AAGAGTAG | -0.16

Single results of other studies
Substance | target | test | system | setting | scale | endpoint | value
PhoQ, residues 284 288 289 292 302 303 SCEHLI | PhoP, residues 12 14 15 18 19 SQCLL (Escherichia coli, UniProt P23836) | Sort-seq, item: YFP reporter | E. coli | PhoQ-PhoP variant library, together with: 10 µM Mg2+ | reference: high Mg2+ state, higher = stronger signaling | fold induction | 13.2

A few entries again (sample 1):
Oligonucleotide | 7-mer Z-score
AGAGCGA | -0.0645
CCUCAUC | -0.325
